Assay results pooled from the literature.
A part holds a random share of what one study measured. Changes are numbered by the printed parent chain.

Study 1
Target: ABI1, truncated, D143A, DHFR fusion (Arabidopsis thaliana, UniProt P49597)
Method: DHFR PCA, dose-response
Medium: yeast
Setting: Hill fit, mean, not affinity
With: (+)-ABA, dose series
Reading: lower = more sensitive
Endpoint: ABA EC50
Parent: PYL1, truncated, DHFR fusion (Arabidopsis thaliana, UniProt Q8VZS8); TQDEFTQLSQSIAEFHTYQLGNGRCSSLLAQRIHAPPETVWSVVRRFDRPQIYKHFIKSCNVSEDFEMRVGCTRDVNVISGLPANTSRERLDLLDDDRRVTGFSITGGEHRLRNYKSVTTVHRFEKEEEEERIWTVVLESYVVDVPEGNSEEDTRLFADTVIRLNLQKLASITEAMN
L82Q: 223 µM
A175E: 2.24 µM
C72M: 2.36 µM
G71T: 179 µM
D97H: 3.66 µM
G23V: 78 µM
S27G: 2.65 µM
E125M: 1.6 µM
V137T: 268 µM
H34D: 2.3 µM
F124P: 52.1 µM
E14N: 11.3 µM
L112V: 325 µM
R32N: 9.3 µM
T119V: 24.1 µM
R123I: 39.3 µM
E131Y: 4.93 µM
W134R: 9.44 µM
S80K: 55.1 µM
S63I: 3.75 µM
G107K: 73.5 µM
L138Y: 63.7 µM
L8C: 5.4 µM
E152K: 5.67 µM
S42D: 3.6 µM

Study 2
Target: Prothrombin, mature alpha-thrombin (F2, Homo sapiens, UniProt P00734)
Method: aptamer microarray, sandwich
Form: DNA with 2'F-ANA
Medium: in vitro
Tested at: 200 nM
Setting: whole 15-mer aptamer, many near background
With: Cy3 exosite-II aptamer, 400 nM
Reading: higher = stronger binding
Endpoint: mean fluorescence intensity
Oligonucleotide: GGTTGGTGTGGTTGG
2'F-ANA at 1 3 4 5 8 9 15: 67.7 a.u.
2'F-ANA at 1 3 6 7 9 11 12 14 15: 93.6 a.u.
2'F-ANA at 2 3 4 8 9 10 13 14: 195 a.u.
2'F-ANA at 3 5 6 7 10 11 13 15: 54.4 a.u.
2'F-ANA at 2 3 4 5 7 8 10 11 12 15: 53.8 a.u.
2'F-ANA at 1 2 4 6 7 8 10 13 14: 49.7 a.u.
2'F-ANA at 1 3 4 7 11 12 13 14 15: 77.9 a.u.
2'F-ANA at 1 6 8 9 11 13 14 15: 52.6 a.u.
2'F-ANA at 2 3 5 8 9 10 11 12 13: 81 a.u.
2'F-ANA at 1 4 6 9 13 14: 76.8 a.u.
2'F-ANA at 1 2 5 6 7 8 12: 115 a.u.
2'F-ANA at 1 2 3 4 9 10 13 14: 50.4 a.u.
2'F-ANA at 2 4 8 10 11 12 13: 92.2 a.u.
2'F-ANA at 1 2 3 5 6 11 12 13 14 15: 51.5 a.u.
2'F-ANA at 3 5 7 9 10 11 12 13 14: 106 a.u.
2'F-ANA at 1 6 9 10 11 12 13: 61 a.u.
2'F-ANA at 2 3 4 5 6 7 8 9 10 14: 79 a.u.
2'F-ANA at 2 3 4 5 11 12 13: 106 a.u.
2'F-ANA at 2 3 7 10 13 15: 406 a.u.
2'F-ANA at 1 2 5 6 10 14 15: 48.8 a.u.
2'F-ANA at 2 3 4 6 7 8 10 12 13 14 15: 162 a.u.
2'F-ANA at 1 6 7 9 12 13 15: 229 a.u.
2'F-ANA at 1 3 4 8 9 11 15: 194 a.u.
2'F-ANA at 1 4 6 9 14 15: 59.8 a.u.
2'F-ANA at 2 3 4 5 6 10 13 14: 90.7 a.u.

Study 3
Target: Sal-like protein 4, full length isoform B (SALL4, Homo sapiens, UniProt Q9UJQ4-2, residues 1-616)
Method: universal PBM
Form: double-stranded DNA, one strand shown
Medium: in vitro
Tested at: not given
Setting: 8-mer, flanks averaged, mean of replicates
Reading: higher = stronger binding
Endpoint: E-score
ATCGCCAA: -0.0686
TAGCAATA: 0.314
AACCCGCA: -0.102
GCGAACAA: 0.162
GCTTGCAA: 0.143
GCGGTCTA: -0.0166
TAAAGAGA: 0.13
GCCACCTA: -0.193
GGCCAGCC: -0.367
GCTCTCAA: -0.0771
CAGCGAGA: -0.194
ACTGGGAT: 0.0515
ACGACTTA: -0.00067
AAGAGTAT: 0.251
AAAAGTAT: 0.289
AATCATGG: 0.146
GATGGGAA: 0.0195
AAACATTC: 0.0997
CAAGACCG: -0.277
TCCCAAGA: -0.0387
CTCTTGCA: -0.198

Study 4
Target: RNA binding protein fox-1 homolog 2, RRM domain, GST-SBP tag (RBFOX2, Homo sapiens, UniProt O43251-10, residues 100-194)
Method: RNA Bind-n-Seq
Form: RNA
Medium: in vitro
Tested at: 365 nM
Setting: natural RNA segment, single round, ends assumed
Relative to: no-protein control
Reading: higher = stronger binding
Endpoint: RBNS enrichment (R)
Residues (chain): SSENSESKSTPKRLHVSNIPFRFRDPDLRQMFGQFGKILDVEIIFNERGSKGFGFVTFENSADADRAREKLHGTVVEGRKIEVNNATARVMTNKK
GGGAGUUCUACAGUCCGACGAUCUUGGAAGCCAGGUUUCCUUACACUAAGGUAGGUCUAGGUUCUUCGGAAACUAAGAUAAACUUAGUGUAUCUGAGAAGAAUACCUGUCCAUCUUGCUACCCGCUUUUGCCUUGGAAUUCUCGGGUGCCAA: 0.262
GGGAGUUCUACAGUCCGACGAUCCACAGCUCACUGCAGCCUCCAUCUCCUAGGCUCAAGCCAUUUUCCCACCUCAGCCUCCCGAGUAGCUGGGACUACAGGUGCACACCACCACACCUGGCUAAUUUUUUGUAUGGAAUUCUCGGGUGCCAA: 0.88
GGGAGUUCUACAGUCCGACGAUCCGGCUUUCCAGUGCGGAGAGUCGAGAUGCUCCCUGCAGCCCAGGCCCCGGGCACCUCCUGCAACCAUCUCUGGGCUCAGCACCUGAGGCGGGUUUCCUGGGUCCCCUCUCUGGAAUUCUCGGGUGCCAA: 0.364
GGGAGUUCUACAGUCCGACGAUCUGCCCUCCUGAGCUCCCACCCAGGCAUCUCCAGUGCUCAUGAUCAUGUGUCCCCCAACUCCACCCCUCACAGUUUGGGCCUGUUUCUGGCAAAGAGUCAGGAAGGUUACUUGGAAUUCUCGGGUGCCAA: 0.59
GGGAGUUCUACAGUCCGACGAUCCUAUCCACCCCCCUCCUUGCUGGCCUACUCUGACAUAAUACAAGUGUCUUCUUGCCUUGAGGAACCUUAAUGGCAUUGUGGCCACCACAUGUGACUCUUCUCCGUGACUCUGGAAUUCUCGGGUGCCAA: 0.383
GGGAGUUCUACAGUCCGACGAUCUUGUUCCUGUGGCCAGGAGUUUGGUGACUGAAUCAUUUAUGGGCUCCUUUAAUGGGCCCAUAAAAGCUCUUAGCUUCCUCAGGGGGUCAGCAGAGUUGUUGAAUCUUAAUUGGAAUUCUCGGGUGCCAA: 0.29
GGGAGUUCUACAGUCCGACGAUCAGCUUCUUAAUUCCAAUACUAAUUUGCUUUGCUGACCAAAUACCUGCCUGGUACCAGAAGACAGGGAGGCAGAGACUGGGAGCCGUGAUGUGCCCUUGGGCUGAGCCCUAUGGAAUUCUCGGGUGCCAA: 0.42
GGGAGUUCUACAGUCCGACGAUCCCAGUUCCCCUCUCUGCCCCCACACUCGUCUUAGUUGCUUCACACUGGUCACUGGCCCUGCACACUGGGCUAUUGCUUUAUCCCUAUCCUGAGAGCAGCCCCUCCCCACCUGGAAUUCUCGGGUGCCAA: 0.851
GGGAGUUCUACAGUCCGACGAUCGUAACUAAUUUUUAUAUAGUUAAUGUAGGAUAAAGUAGAGUGCAUUAAGACACAAUAUUGUAAUCCCUACUCUAGGCACUUGCCUUUAAACUAUGUUUUUCAGCCCUUCAUGGAAUUCUCGGGUGCCAA: 0.422
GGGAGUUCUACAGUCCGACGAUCGGUAUCCCCCUGCCCCCUCAGUGUCCUUCCCUGUUCCCUCCCACUACUCCCCCAAGUUGGGGAAAGGAGGGGGAACCUACGAGAAAAACAGCUCAGGUUUUAUCACCGACUGGAAUUCUCGGGUGCCAA: 0.331
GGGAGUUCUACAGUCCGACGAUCACUCCCUACCCCUCUCCUCCCUAAUUCUGUCUUCCUUCUCUCCACUCUUUUAAGAUUCAGAGGGUACAGAACAACCUCUAUUAUUUCAGAGUACCCUUGAGAAUUGAAAUUGGAAUUCUCGGGUGCCAA: 1.6
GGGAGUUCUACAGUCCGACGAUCGCUCUCUUUGGGACCUGGCCGUGCUUCCUGCUCGUAUGACUACCAGGGGCCAUAUCUGUAUUAACUGGAUCAAGUAUAAGAAAAGCAAAGACUUCUCAGCUCUGACCUGCUGGAAUUCUCGGGUGCCAA: 1.29

Study 5
Target: Histone acetyltransferase KAT6A, winged helix 2, GST fusion (KAT6A, Homo sapiens, UniProt Q92794, residues 85-181)
Method: protein binding microarray
Form: double-stranded DNA, one strand shown
Medium: in vitro
Tested at: not given
Setting: 8-mer, flanks averaged, mean of 2 arrays, mostly near background
Relative to: not given
Reading: higher = stronger binding
Endpoint: E-score
Residues (chain): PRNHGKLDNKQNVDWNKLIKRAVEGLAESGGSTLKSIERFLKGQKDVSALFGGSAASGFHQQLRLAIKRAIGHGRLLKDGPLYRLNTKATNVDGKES
ACCCTGGG: 0.124
AATTTATC: 0.192
ACTCACTC: 0.136
AGGTTGTC: -0.141
GCTGCGCC: 0.194
CACCGCTG: 0.0781
ATGATAAC: 0.15
AGTGAGAC: -0.0739
GGGTGGCA: 0.135
TGGCGAAA: 0.133
AACACAAA: -0.0306
ATCGCCTA: -0.0575
GGCGTTTA: -0.186
GCAGTTCA: 0.0254
CGAGAAGA: -0.095
AGATGATG: -0.0738
TCTACAGA: 0.0166
CTTGCTGA: 0.0603
AATTCAGC: -0.00656

For quick reference, copied from above (study 5):
AGTGAGAC: -0.0739
GGGTGGCA: 0.135
TGGCGAAA: 0.133
AACACAAA: -0.0306
ATCGCCTA: -0.0575
GGCGTTTA: -0.186
GCAGTTCA: 0.0254
CGAGAAGA: -0.095
AGATGATG: -0.0738
TCTACAGA: 0.0166
